Assay results of several laboratories.
Each line is one published result; not all experiments were run side by side. Several values in a cell are separate wells, animals, samples, runs or records. ± marks the error that the study gave.

O=C(C[Se]C(=O)c1ccco1)Nc1cccc(C(F)(F)F)c1
mean TGI (NCI60 CNS subpanel; NCI60 five-dose screen): 5.66 µM

CSCC[C@H](N)C(=O)N[C@@H](C)C(=O)N[C@@H](Cc1c[nH]c2ccccc12)C(=O)N[C@@H](Cc1c[nH]cn1)C(=O)N[C@@H](CC(=O)O)C(=O)N[C@@H](CC(=O)O)C(=O)N[C@@H](CCC(=O)O)C(=O)N[C@@H](CCC(=O)O)C(=O)N[C@@H](Cc1ccccc1)C(=O)N[C@@H](C)C(=O)N[C@@H](CCCNC(=N)N)C(=O)N[C@@H](CCCNC(=N)N)C(=O)N[C@@H](CCCNC(=N)N)C(=O)N[C@@H](CCCNC(=N)N)C(=O)NCCCCCC(=O)NCCCCC(NC(=O)CCCCCNC(=O)[C@H](CCCNC(=N)N)NC(=O)[C@H](CCCNC(=N)N)NC(=O)[C@H](CCCNC(=N)N)NC(=O)[C@H](CCCNC(=N)N)NC(=O)[C@H](C)NC(=O)[C@H](Cc1ccccc1)NC(=O)[C@H](CCC(=O)O)NC(=O)[C@H](CCC(=O)O)NC(=O)[C@H](CC(=O)O)NC(=O)[C@H](CC(=O)O)NC(=O)[C@H](Cc1c[nH]cn1)NC(=O)[C@H](Cc1c[nH]c2ccccc12)NC(=O)[C@H](C)NC(=O)[C@@H](N)CCSC)C(=O)NCCCCC(NC(=O)C(CCCCNC(=O)CCCCCNC(=O)[C@H](CCCNC(=N)N)NC(=O)[C@H](CCCNC(=N)N)NC(=O)[C@H](CCCNC(=N)N)NC(=O)[C@H](CCCNC(=N)N)NC(=O)[C@H](C)NC(=O)[C@H](Cc1ccccc1)NC(=O)[C@H](CCC(=O)O)NC(=O)[C@H](CCC(=O)O)NC(=O)[C@H](CC(=O)O)NC(=O)[C@H](CC(=O)O)NC(=O)[C@H](Cc1c[nH]cn1)NC(=O)[C@H](Cc1c[nH]c2ccccc12)NC(=O)[C@H](C)NC(=O)[C@@H](N)CCSC)NC(=O)CCCCCNC(=O)[C@H](CCCNC(=N)N)NC(=O)[C@H](CCCNC(=N)N)NC(=O)[C@H](CCCNC(=N)N)NC(=O)[C@H](CCCNC(=N)N)NC(=O)[C@H](C)NC(=O)[C@H](Cc1ccccc1)NC(=O)[C@H](CCC(=O)O)NC(=O)[C@H](CCC(=O)O)NC(=O)[C@H](CC(=O)O)NC(=O)[C@H](CC(=O)O)NC(=O)[C@H](Cc1c[nH]cn1)NC(=O)[C@H](Cc1c[nH]c2ccccc12)NC(=O)[C@H](C)NC(=O)[C@@H](N)CCSC)C(N)=O (stereo partly drawn)
osteoclast formation (mouse C57BL/6 BMMs; 3.0 µM, 3 days, together with: RANKL; relative to: untreated control): 14%

CC(C)[C@H](NC(=O)[C@H](CCCNC(=N)N)NC(=O)[C@@H]1CCCN1C(=O)[C@@H](NC(=O)[C@H](C)NC(=O)[C@H](Cc1ccc(O)cc1)NC(=O)[C@H](CCC(N)=O)NC(=O)[C@H](CCCCN)NC(=O)[C@H](CCCNC(=N)N)NC(=O)[C@@H]1CCCN1C(=O)[C@H](CCC(=O)O)NC(=O)[C@@H](NC(=O)[C@H](C)N)[C@@H](C)O)[C@@H](C)O)C(=O)N[C@@H](Cc1ccccc1)C(=O)N[C@@H](Cc1c[nH]c2ccccc12)C(=O)N[C@H](C(=O)N[C@@H](CC(=O)O)C(=O)N[C@@H](C)C(=O)N1CCC[C@H]1C(=O)NCC(=O)NCCOCCOCCOCCOCCOCCOCCOCCOCCOCCOCCOCCOCCC(=O)N[C@@H](CS)C(N)=O)[C@@H](C)O
selectivity ratio (H1437 lung adenocarcinoma; cell binding, phage binding, measured: output/input phage; 10 min, 37 °C; relative to: control phage): 3.6 ± 1.5

O=C(C[Se]C(=O)c1cccnc1Nc1cccc(C(F)(F)F)c1)Nc1cccc(C(F)(F)F)c1
CC50 (NCI60 colon subpanel; NCI60 five-dose screen): 24.9 µM

CC1OC2OC3C4=C(OC3(C)C12O)C(=O)c1c(O)cccc1C4=O (stereo not drawn)
growth percent (SCC-40; sulforhodamine B; 10 µg/mL, 48 h; negative means cell kill): -32.5%

CC(C)CC(O)(CC(C)C)c1cn(C(=O)N2CCCC2)nn1
SILAC ratio (mouse T-cells; protein abundance, unenriched SILAC proteomics, measured: S100a6; 1 nM, 6 h, single tryptic peptide; relative to: DMSO): 1.14 and 0.93

CC1CCC2C(C)C(OC(=O)CCC(=O)N3CCC(Nc4ccc(S(=O)(=O)NC(=O)c5ccc(N6CCN(CC7=C(c8ccc(Cl)cc8)CC(C)(C)CC7)CC6)cc5Oc5cnc6[nH]ccc6c5)cc4[N+](=O)[O-])CC3)OC3OC4(C)CCC1C32OO4 (stereo not drawn)
early apoptotic cells (KCL-22; annexin V/PI flow cytometry, measured: annexin V+/PI-; 3.2 µM, 24 h): 56.7%

Cc1cc(Oc2nc(N3CC[C@@H](c4ccncc4)C3)ncc2F)[nH]n1
IC50 (U-87 MG; cell proliferation): > 100 µM

CSCC[C@H](NC(=O)[C@@H](NC(=O)[C@H](CCC(N)=O)NC(=O)[C@H](CO)NC(=O)[C@@H](N)C(C)C)[C@@H](C)O)C(=O)N[C@@H](CCCNC(=N)N)C(=O)N[C@@H](CCC(N)=O)C(=O)N[C@H](C(=O)N[C@@H](C)C(=O)N[C@H](C(=O)N1CCC[C@H]1C(=O)N[C@@H](CC(C)C)C(=O)N[C@@H](CC(C)C)C(=O)N[C@@H](Cc1c[nH]c2ccccc12)C(=O)N[C@@H](Cc1ccccc1)C(=O)N[C@@H](Cc1c[nH]c2ccccc12)C(=O)N[C@H](C(=O)NCC(=O)N[C@@H](CO)C(=O)N[C@@H](CC(C)C)C(=O)NCCOCCOCCOCCOCCOCCOCCOCCOCCOCCOCCOCCOCCC(=O)N[C@@H](CS)C(N)=O)[C@@H](C)O)C(C)C)[C@@H](C)O
selectivity ratio (MDA-MB-231 breast cancer; cell binding, phage binding, measured: output/input phage; 10 min, 37 °C; relative to: control phage): 28 ± 13.3

O=c1n(CCNCCOS(=O)(=O)c2ccccc2)c(=O)n(S(=O)(=O)c2ccccc2)c(=O)n1S(=O)(=O)c1ccccc1
viability (A549; cell growth or viability, MTT; 200 µg/mL, 24 h): 22.3%

O=C(O)c1ccc(-c2nc(-c3ccccc3Cl)c3sccn23)cc1
CD41-positive cells (HEL; flow cytometry; 0.01 mM): 63.7%

COc1ccccc1-c1ccncc1C(=O)Nc1nnc(OCc2ccc(Cl)cc2)s1
colony survival (HCT-116 BRCA2 wild-type; 0.125 µM; relative to: untreated): 96.2%

CC(C)(C)C(=O)OCOP(=O)(OCOC(=O)C(C)(C)C)C1CCCN(O)C1=O (stereo not drawn)
Log10TGI (NCI/ADR-RES): -5.45 log M

O=C(C[Se]C(=O)c1cccs1)Nc1cccc(C(F)(F)F)c1
mean growth percent (NCI60 breast subpanel; cell growth; 10 µM, 48 h, one-dose): -75.7%

Cc1ccc(C(C)C)cc1.Cc1ccc(C(C)C)cc1.Cc1ccc(C(C)C)cc1.Cc1ccc(C(C)C)cc1.O=S(=O)([O-])C(F)(F)F.O=S(=O)([O-])C(F)(F)F.O=S(=O)([O-])C(F)(F)F.O=S(=O)([O-])C(F)(F)F.c1ccc2c3c4ccccc4c(c2c1)-c1cn(nn1)-c1cc[n+](cc1)[Ru-]1[O]c2ccc4c5c(ccc(c25)=[O+]1)=[O+][Ru-]([O]4)[n+]1ccc(cc1)-n1cc(nn1)-c1c2ccccc2c(c2ccccc12)-c1cn(nn1)-c1cc[n+](cc1)[Ru-]1[O]c2ccc4c5c(ccc(c25)=[O+]1)=[O+][Ru-]([O]4)[n+]1ccc(cc1)-n1cc-3nn1
G0/G1 phase cells (HepG2; concentration not given, 24 h): 44%

O=C(C[Se]C(=O)C12CC3CC(CC(C3)C1)C2)Nc1cccc(C(F)(F)F)c1
CC50 (NCI60 colon subpanel; NCI60 five-dose screen): 54.9 µM

N[C@H](C(=O)N1CCCC1)C1CCN(c2nccc3c(-c4ncc(Cl)cc4Cl)cccc23)CC1
inhibition (human neutrophils; protein citrullination, inhibitor, flow cytometry, measured: citrullinated proteins; 1 µM, together with: ionomycin): 44.4% and 26% and 41.1% and 47.7%

CC(C)C[C@H](NC(=O)[C@H](CCC(=O)O)NC(=O)[C@@H](NC(=O)CN)[C@@H](C)O)C(=O)N1CCC[C@H]1C(=O)N[C@@H](CO)C(=O)N1CCC[C@H]1C(=O)N1CCC[C@H]1C(=O)N[C@@H](CO)C(=O)N[C@H](C(=O)N[C@@H](Cc1c[nH]c2ccccc12)C(=O)N[C@@H](Cc1ccccc1)C(=O)N[C@@H](CCC(=O)O)C(=O)N[C@@H](C)C(=O)N[C@@H](CCC(=O)O)C(=O)N[C@@H](Cc1ccccc1)C(=O)O)C(C)C
viability (HepG2; MTT; 30 µg/mL, 24 h): 97.6 ± 2.02%

For quick reference, copied from above:
O=c1n(CCNCCOS(=O)(=O)c2ccccc2)c(=O)n(S(=O)(=O)c2ccccc2)c(=O)n1S(=O)(=O)c1ccccc1
viability (A549; cell growth or viability, MTT; 200 µg/mL, 24 h): 22.3%

O=C(O)c1ccc(-c2nc(-c3ccccc3Cl)c3sccn23)cc1
CD41-positive cells (HEL; flow cytometry; 0.01 mM): 63.7%

COc1ccccc1-c1ccncc1C(=O)Nc1nnc(OCc2ccc(Cl)cc2)s1
colony survival (HCT-116 BRCA2 wild-type; 0.125 µM; relative to: untreated): 96.2%
